Measurements from different studies.
± marks the error that the study gave.
Proteasome subunit alpha type-2/Proteasome subunit alpha type-6 20S proteasome: Proteasome subunit alpha type-2/Proteasome subunit alpha type-6, 20S proteasome (Homo sapiens, UniProt P25787+P60900)
PPO3: PPO3 (Agaricus bisporus, UniProt C7FF04)

CC[C@H](C)[C@H](NC(=O)[C@H](CCCCN)NC(=O)[C@H](CCCCN)NC(=O)[C@@H](NC(=O)[C@H](CCC(=O)O)NC(=O)[C@H](CCC(=O)O)NC(=O)[C@H](CCC(=O)O)NC(=O)[C@H](CO)NC(=O)[C@H](CC(C)C)NC(=O)[C@H](CC(=O)O)NC(=O)[C@H](CC(C)C)NC(=O)CNC(=O)[C@H](CCCNC(=N)N)NC(=O)[C@H](CC(C)C)NC(=O)[C@H](CO)NC(=O)CNC(=O)CNC(=O)CNC(=O)CCCC[C@@H]1SC[C@@H]2NC(=O)N[C@@H]21)C(C)C)C(=O)N[C@@H](CC(C)C)C(=O)N[C@@H](CC(=O)O)C(=O)N[C@@H](CCC(=O)O)C(=O)N[C@H](C(=O)N[C@H](C(=O)N[C@@H](CCCCN)C(=O)N[C@@H](CC(=O)O)C(=O)N1CCC[C@H]1C(=O)N[C@@H](C)C(=O)N[C@@H](CC(=O)O)C(=O)O)C(C)C)[C@@H](C)CC
Kd ratio (Fab B11 antibody (human); binding, biolayer interferometry; reference: alanine mutant over wild type): 2.3

CCc1nc2cc3ccccc3cc2cc1C(=O)N[C@@H](CCCCN)C(=O)N[C@@H](C/C=C\C[C@H](NC(=O)[C@H](CCCCN)NC(=O)c1cc2cc3ccccc3cc2nc1CC)C(=O)N1CCC[C@H]1C(=O)NCCCN)C(=O)N1CCC[C@H]1C(=O)NCCCN
residence time ((CAG)10 RNA; SPR): 227 s

Cc1ncsc1-c1ccc([C@@H]2CCCCNC(=O)C[C@@H]3N=C(c4ccc(cc4)OCCCCC(=O)N[C@@H](C(C)(C)C)C(=O)N4C[C@H](O)C[C@H]4C(=O)N2)c2c(sc(C)c2C)-n2c(C)nnc23)cc1
degradation (Bromodomain-containing protein 4, short isoform (BRD4, Homo sapiens, UniProt O60885); degrader, immunoblotting, measured: BRD4 short isoform; PC-3; 10 nM, 24 h): 17%

O=C(CCn1c2ccccc2c2ccncc21)N(c1ccc(F)cc1)c1ccc(F)cc1
maximum fold increase (Proteasome subunit alpha type-2/Proteasome subunit alpha type-6 20S proteasome; proteolysis, activator, fluorogenic peptide; purified 20S proteasome; up to 30 µM, together with: Suc-LLVY-AMC, Z-LLE-AMC, Boc-LRR-AMC; reference: vehicle): 12 ± 2.6

Oc1cc(O)c2c(c1)O[C@H](c1ccc(O)c(O)c1)[C@@H](O)[C@@H]2c1c(O)cc(O)c2c1O[C@H](c1ccc(O)c(O)c1)[C@H](O)C2
Vmax (PPO3; inhibitor): 312 µM/min

CNc1ccccc1C(=O)O[C@H]1C[C@H](n2cnc3c(N)ncnc32)O[C@@H]1COP(=O)(O)OP(=O)(O)O
dissociation rate constant (Unconventional myosin-Va (Gallus gallus, UniProt Q02440, D297C/G292C/I296C/S293C/V295G); stopped-flow FRET; 15 °C, together with: MgCl2 10 mM): 3.04 ± 0.01 s⁻¹

CC(C)C[C@H](NC(=O)[C@H](CC(C)C)NC(=O)[C@H](CCC(=O)O)NC(=O)[C@@H](N)CS)C(=O)O
remaining activity (PPO3; enzyme activity, inhibitor; 50 µM): 76.7%

CCCCCCCC(=O)Nc1ccc(C#N)nc1C
specific activity (Carboxylesterase 3 (CES3, Homo sapiens, UniProt Q6UWW8); substrate; 50 µM, pH 8, 37 °C, enzyme purity 3%): < 1 pmol/min/µg

CC[C@H](C)[C@@H]1NC(=O)[C@H](CCSC)NC(=O)CCCC(=O)NCCCC[C@@H](C(N)=O)NC(=O)[C@H]([C@@H](C)O)NC(=O)CNC(=O)[C@H](C)NC(=O)[C@H](C(C)C)NC(=O)[C@H](Cc2ccccc2)NC(=O)[C@H](CCC(=O)O)NC(=O)[C@H](Cc2ccc(O)cc2)NC(=O)[C@H](Cc2c[nH]c3ccccc23)NC(=O)[C@H]([C@@H](C)O)NC1=O
kcat/Km reduction (Chymotrypsinogen A (Bos taurus, UniProt P00766); substrate; concentration not given; reference: compound over variant): 1 fold

OC(Cc1cc(-c2ccc(C(O)C(F)(F)F)s2)sc1-c1ccc(-c2sc(-c3ccc(C(O)C(F)(F)F)s3)cc2CC(O)C(F)(F)F)s1)C(F)(F)F (stereo not drawn)
Kd ratio (Microtubule-associated protein tau, 0N4R isoform, aggregated (MAPT, Homo sapiens, UniProt P10636); binding, fluorescence; 50% sucrose tau fraction; reference: 50% over 20% fraction): 15

CC(C)C[C@H](NC(=O)CNC(=O)[C@H](CC(C)C)NC(=O)[C@@H]1CCCN1C(=O)CNC(=O)[C@H](Cc1ccccc1)NC(=O)[C@H](Cc1ccccc1)NC(=O)OCC1c2ccccc2-c2ccccc21)C(=O)N[C@@H](CCCNC(=N)N)C(=O)N[C@@H](CO)C(=O)N[C@@H](CCCCN)C(=O)O
hydrolysis product (MMP9 (Homo sapiens, UniProt P14780); substrate, HPLC; 500 µM, 72 h, pH 7.5, 37 °C): 28%

O=C(NCc1ccc2c(c1)OCO2)c1ccnc(C(=O)NCc2ccc3c(c2)OCO3)c1
potency shift (Collagenase 3 (MMP13, Homo sapiens, UniProt P45452); collagen degradation; unit not given; reference: collagen assay over isolated enzyme): > 100

O=C(Cn1c(=O)oc2ccccc21)N(c1ccc(F)cc1)c1ccc(F)cc1
EC200 (Proteasome subunit alpha type-2/Proteasome subunit alpha type-6 20S proteasome; proteolysis, activator, fluorogenic peptide; purified 20S proteasome; together with: Suc-LLVY-AMC, Z-LLE-AMC, Boc-LRR-AMC): > 30 µM

Cc1ncsc1-c1ccc([C@@H]2CCCCCCNC(=O)C[C@@H]3N=C(c4ccc(cc4)OCCCCC(=O)N[C@@H](C(C)(C)C)C(=O)N4C[C@H](O)C[C@H]4C(=O)N2)c2c(sc(C)c2C)-n2c(C)nnc23)cc1
degradation (Bromodomain-containing protein 4, long isoform (BRD4, Homo sapiens, UniProt O60885); degrader, immunoblotting, measured: BRD4 long isoform; PC-3; 10 nM, 24 h): 78%

C[C@]12CC[C@@H]3c4cc(Br)c(O)cc4CC[C@H]3[C@@H]1CCC2=O
inhibition (AKR1C1 (Homo sapiens, UniProt Q04828); enzyme activity, inhibitor, absorbance; 100 µM, pH 9): 65%

O=C(CCCCCCS)Nc1ccccc1
binding enthalpy (ΔH) (HDAC8 (Homo sapiens, UniProt Q9BY41); isothermal titration calorimetry; concentration not given, pH 7.5, 25 °C): -4.5 ± 0.3 kcal/mol

CC1=CCCN(c2ncc(C(F)F)cn2)C1
binding (DUSP3 (Homo sapiens, UniProt P51452); ligand-observed 19F NMR; concentration not given, together with: DUSP3 4 or 8 µM): active

CC(C=CC=CC=CC1=C(C)CCCC1(C)C)=CCO
melting temperature (Rhodopsin, apoprotein (opsin) (RHO, Bos taurus, UniProt P02699); regenerated pigment stability, thermal shift, BFC probe; ROS disk membranes): 60.9 °C

Some of these lines once more:
C[C@]12CC[C@@H]3c4cc(Br)c(O)cc4CC[C@H]3[C@@H]1CCC2=O
inhibition (AKR1C1 (Homo sapiens, UniProt Q04828); enzyme activity, inhibitor, absorbance; 100 µM, pH 9): 65%

O=C(CCCCCCS)Nc1ccccc1
binding enthalpy (ΔH) (HDAC8 (Homo sapiens, UniProt Q9BY41); isothermal titration calorimetry; concentration not given, pH 7.5, 25 °C): -4.5 ± 0.3 kcal/mol

CC1=CCCN(c2ncc(C(F)F)cn2)C1
binding (DUSP3 (Homo sapiens, UniProt P51452); ligand-observed 19F NMR; concentration not given, together with: DUSP3 4 or 8 µM): active
